Published values pooled from the literature.
± marks the error that the study gave.
Organism: Plasmodium falciparum

| SMILES | test | test system | setting | IC50 [nM] |
| --- | --- | --- | --- | --- |
| COc1cc(CO)c(-c2ccc3c(c2O)[C@@H](C)N[C@H](C)C3)c2cccc(O)c12 | asexual parasite proliferation, SYBR Green I fluorescence | 7G8 | – | 20.2 ± 8.9 |
| CC1=C(C)/C(=C/c2cc(Cc3ccc(Cl)cc3)c(C)[nH]2)N=C1c1ccc[nH]1 | parasite growth, SYBR Green fluorescence | Tm90-C2B (atovaquone-resistant), asexual blood stage | 72 h | 836 |
| Cc1cc(NCCc2ccccc2)nc(N=C(N)Nc2ccc(Cl)cc2)n1 | parasite growth, inhibitor, SYBR Green I | 3D7 | – | 184 |
| COC1=C(OC)/C(=C/c2[nH]c(Cc3ccc(OC(F)(F)F)cc3)cc2Cc2ccc(OC(F)(F)F)cc2)N=C1c1ccc[nH]1 | parasite growth, SYBR Green fluorescence | Tm90-C2B (atovaquone-resistant), asexual blood stage | 72 h | 103 |
| O=C(CC1NCCCC1O)Cn1cnc2cc(Br)c(Cl)cc2c1=O (stereo not shown) | parasite growth | conditional knockdown control line | 120 h, added: 12.5 nM anhydrotetracycline | 0.4 |
| CCC1=C(CC)/C(=C/c2cc(Cc3ccc(OC(F)(F)F)cc3)c(C)[nH]2)N=C1c1ccc[nH]1 | parasite growth, SYBR Green fluorescence | Tm90-C2B (atovaquone-resistant), asexual blood stage | 72 h | 213 |
| COc1nc2ccc(Br)cc2cc1[C@@H](c1ccccc1)[C@@](O)(CCN(C)C)c1cccc2ccccc12 | parasite growth, stage-specific treatment | – | 12 h, early to late schizont stage | 1540 ± 120 |
| CCN(CC)CCCC(C)Nc1ccnc2cc(Cl)ccc12 (stereo not shown) | asexual parasite proliferation, SYBR Green I fluorescence | K1 | – | 157 ± 31 |
| Cc1ccc2oc(-c3cc(NC(=O)Cc4ccccc4)ccc3Cl)nc2c1 | parasite growth, inhibitor, SYBR Green I | 3D7 | – | 32200 |
| COc1cc(C)c(-c2ccc(O)c3c2C[C@@H](C)N[C@@H]3C)c2cccc(O)c12 (single isomer, unassigned) | asexual parasite proliferation, SYBR Green I fluorescence | clinical isolate SB_05, Mozambique | – | 17.3 ± 1 |

Excerpt of the above:
| SMILES | test | test system | setting | IC50 [nM] |
| --- | --- | --- | --- | --- |
| COC1=C(OC)/C(=C/c2[nH]c(Cc3ccc(OC(F)(F)F)cc3)cc2Cc2ccc(OC(F)(F)F)cc2)N=C1c1ccc[nH]1 | parasite growth, SYBR Green fluorescence | Tm90-C2B (atovaquone-resistant), asexual blood stage | 72 h | 103 |
